Results from different studies.
Each numbered part is a random draw from the data of one study; scales do not carry over between parts.

Series 1 — method: RNA Bind-n-Seq; molecule type: RNA; sample: in vitro; concentration: not given; notes: RNA with constant flanks, ends assumed; relative to: input RNA pool; direction: higher = stronger binding
Target: RING finger protein unkempt homolog, zinc fingers 1-6, GST-SBP tag (UNK, Homo sapiens, UniProt Q9C0B0, residues 30-357)
UniProt Q9C0B0, sequence (30-357, looked up): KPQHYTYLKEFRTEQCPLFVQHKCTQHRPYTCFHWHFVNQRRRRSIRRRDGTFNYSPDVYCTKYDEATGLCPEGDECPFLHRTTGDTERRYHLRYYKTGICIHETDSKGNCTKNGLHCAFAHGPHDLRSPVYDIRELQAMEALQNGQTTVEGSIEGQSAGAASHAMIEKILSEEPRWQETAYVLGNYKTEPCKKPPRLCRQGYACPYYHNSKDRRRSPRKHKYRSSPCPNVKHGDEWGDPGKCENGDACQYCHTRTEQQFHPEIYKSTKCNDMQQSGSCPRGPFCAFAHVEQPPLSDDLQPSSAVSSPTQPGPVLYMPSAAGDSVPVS
Oligonucleotide	bound/input enrichment [ratio]
GGGAGUUCUACAGUCCGACGAUCUAUACUGGCAUUGAUCAUCACUGGAAAGACCCAGUCUUUGCCACUUGUGGACAGCAAGCCGACAUUUGGGAUGAACAAAGAACCAGCCCUGUGUGCUCAAUGAACUGGGGAUUUGACAGCCAACAGAGGAUUGAGCAUCA	0.135
GGGAGUUCUACAGUCCGACGAUCAUCUCUGCUAUGAACAAGGUUGCAGAAGUUUUACAAGUACCUCCAAUGAGAGUAUAUGAAGCCGCAACUUUUUAUACAAUGUAUAAUCGAAAGCCAGUUGGAAAGUAUCACAUUCAGGUCCAACAGAGGAUUGAGCAUCA	0.101
GGGAGUUCUACAGUCCGACGAUCUGACUGAAAUAUUAAUAUUUAAAAUACUUCAUUCCUUAAUUCUCCCUCAAUUGCUUUACCCACCGCCUAUUCAAUUCCUUUGUUUGGCGAACUCUGCAAAAUGUGUUACCCACUACUGAGCAACAGAGGAUUGAGCAUCA	0.519
GGGAGUUCUACAGUCCGACGAUCGUCUGUCUCAAGGGUACUUAAGCAGCAGAGACCCCUGAAUAUAGGGAUUCUACCUUUUCUUUCCGAAUGGGACUUUUCUAGUGUGAGUGUCUAGGUUGGAUAGGAGACCUUGCCAAAUUCCAACAGAGGAUUGAGCAUCA	0.71

Series 2 — target: human cyclin A2; effect on: peptide binding; method: competitive growth sequencing; molecule type: peptide; organism: Saccharomyces cerevisiae; strain: cyclin A2-Cln2 fusion strain; concentration: concentration not given; notes: peptide tiling library; relative to: unfused Cln2 strain; direction: direction not given
Molecule	binding score
AEHPKPSACRNLFGPV	3.01
GFGFLLFICKLTF	1.43
PYSPLLPPFGLSYTPV	2.61
KSKHEEEEWTDDDLVE	0.115
RPPVKARADLETDHQY	-0.322

Series 3 — method: protein binding microarray; molecule type: double-stranded DNA, one strand shown; sample: in vitro; concentration: not given; relative to: not given; direction: higher = stronger binding
Target: Histone acetyltransferase KAT6A, winged helix 1, GST fusion (KAT6A, Homo sapiens, UniProt Q92794, residues 1-85)
Notes: 8-mer, flanks averaged, mean of 2 arrays, mostly near background
Residues (chain): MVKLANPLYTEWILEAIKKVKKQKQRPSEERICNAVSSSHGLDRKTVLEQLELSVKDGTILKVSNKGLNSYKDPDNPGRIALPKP
Oligonucleotide	E-score
GACCTGTA	-0.00799
GTAGCAAA	-0.0967
GATCGCGC	0.363
CGAAGTCA	-0.177
AATTCTTA	-0.0953
AAGTTCAC	-0.186

Further values, each from its own experiment
Substance	target	assay	test system	conditions	how to read	quantity	result
PhoQ, residues 284 288 289 292 302 303 SACGEM	PhoP, residues 12 14 15 18 19 AGCRL (Escherichia coli, UniProt P23836)	Sort-seq, measured: YFP reporter	E. coli	PhoQ-PhoP variant library, with: 10 µM Mg2+	relative to: high Mg2+ state, higher = stronger signaling	fold induction	7.31

Repeated from above (series 3):
Oligonucleotide	E-score
GACCTGTA	-0.00799
GTAGCAAA	-0.0967
